Measured values collected from several papers.
Parts stem from different laboratories: compare values within a part only. Values joined by “and” are separate records of one study, mostly repeats; a detail may differ.
Sequence of UniProt P10721 (whole entry, unmodified, looked up): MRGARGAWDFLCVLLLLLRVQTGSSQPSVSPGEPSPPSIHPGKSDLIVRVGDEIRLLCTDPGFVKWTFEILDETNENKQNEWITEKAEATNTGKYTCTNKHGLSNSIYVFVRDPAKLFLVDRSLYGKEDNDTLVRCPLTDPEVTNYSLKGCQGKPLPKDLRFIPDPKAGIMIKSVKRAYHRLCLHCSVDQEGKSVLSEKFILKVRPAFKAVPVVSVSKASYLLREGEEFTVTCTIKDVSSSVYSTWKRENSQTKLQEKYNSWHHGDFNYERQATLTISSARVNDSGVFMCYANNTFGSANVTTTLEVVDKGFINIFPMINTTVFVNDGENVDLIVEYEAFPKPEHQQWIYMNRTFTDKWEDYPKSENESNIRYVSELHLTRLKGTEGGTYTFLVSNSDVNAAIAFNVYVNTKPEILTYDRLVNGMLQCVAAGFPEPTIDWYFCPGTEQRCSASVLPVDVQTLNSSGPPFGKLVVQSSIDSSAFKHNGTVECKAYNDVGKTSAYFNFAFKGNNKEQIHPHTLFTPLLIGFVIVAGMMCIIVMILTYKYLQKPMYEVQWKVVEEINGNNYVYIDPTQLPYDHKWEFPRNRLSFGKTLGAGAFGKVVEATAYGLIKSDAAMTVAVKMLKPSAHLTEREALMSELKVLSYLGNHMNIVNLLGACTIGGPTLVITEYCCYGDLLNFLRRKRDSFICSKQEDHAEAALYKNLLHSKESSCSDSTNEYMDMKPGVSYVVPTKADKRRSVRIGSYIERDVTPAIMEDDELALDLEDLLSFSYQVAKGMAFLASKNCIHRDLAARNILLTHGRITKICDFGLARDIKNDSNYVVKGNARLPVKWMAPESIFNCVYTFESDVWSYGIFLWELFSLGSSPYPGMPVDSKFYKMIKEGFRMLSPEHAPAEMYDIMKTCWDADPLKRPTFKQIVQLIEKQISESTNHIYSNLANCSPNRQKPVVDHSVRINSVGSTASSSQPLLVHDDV
Sequence of UniProt P09769 (whole entry, looked up): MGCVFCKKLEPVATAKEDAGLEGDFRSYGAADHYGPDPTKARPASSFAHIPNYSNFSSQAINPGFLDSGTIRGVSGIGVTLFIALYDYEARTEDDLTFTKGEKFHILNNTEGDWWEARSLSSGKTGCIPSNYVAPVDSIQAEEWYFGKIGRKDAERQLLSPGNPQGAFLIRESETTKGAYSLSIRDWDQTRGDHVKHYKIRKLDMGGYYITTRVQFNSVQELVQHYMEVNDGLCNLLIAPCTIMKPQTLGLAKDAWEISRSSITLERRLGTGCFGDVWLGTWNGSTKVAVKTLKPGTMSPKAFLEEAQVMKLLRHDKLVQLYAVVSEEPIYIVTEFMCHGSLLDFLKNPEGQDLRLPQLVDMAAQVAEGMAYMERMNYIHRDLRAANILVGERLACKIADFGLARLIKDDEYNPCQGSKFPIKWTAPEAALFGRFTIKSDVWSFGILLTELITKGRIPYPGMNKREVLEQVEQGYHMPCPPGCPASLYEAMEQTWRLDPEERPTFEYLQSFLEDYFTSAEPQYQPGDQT
Sequence of UniProt Q9Y2I7 (whole entry, looked up): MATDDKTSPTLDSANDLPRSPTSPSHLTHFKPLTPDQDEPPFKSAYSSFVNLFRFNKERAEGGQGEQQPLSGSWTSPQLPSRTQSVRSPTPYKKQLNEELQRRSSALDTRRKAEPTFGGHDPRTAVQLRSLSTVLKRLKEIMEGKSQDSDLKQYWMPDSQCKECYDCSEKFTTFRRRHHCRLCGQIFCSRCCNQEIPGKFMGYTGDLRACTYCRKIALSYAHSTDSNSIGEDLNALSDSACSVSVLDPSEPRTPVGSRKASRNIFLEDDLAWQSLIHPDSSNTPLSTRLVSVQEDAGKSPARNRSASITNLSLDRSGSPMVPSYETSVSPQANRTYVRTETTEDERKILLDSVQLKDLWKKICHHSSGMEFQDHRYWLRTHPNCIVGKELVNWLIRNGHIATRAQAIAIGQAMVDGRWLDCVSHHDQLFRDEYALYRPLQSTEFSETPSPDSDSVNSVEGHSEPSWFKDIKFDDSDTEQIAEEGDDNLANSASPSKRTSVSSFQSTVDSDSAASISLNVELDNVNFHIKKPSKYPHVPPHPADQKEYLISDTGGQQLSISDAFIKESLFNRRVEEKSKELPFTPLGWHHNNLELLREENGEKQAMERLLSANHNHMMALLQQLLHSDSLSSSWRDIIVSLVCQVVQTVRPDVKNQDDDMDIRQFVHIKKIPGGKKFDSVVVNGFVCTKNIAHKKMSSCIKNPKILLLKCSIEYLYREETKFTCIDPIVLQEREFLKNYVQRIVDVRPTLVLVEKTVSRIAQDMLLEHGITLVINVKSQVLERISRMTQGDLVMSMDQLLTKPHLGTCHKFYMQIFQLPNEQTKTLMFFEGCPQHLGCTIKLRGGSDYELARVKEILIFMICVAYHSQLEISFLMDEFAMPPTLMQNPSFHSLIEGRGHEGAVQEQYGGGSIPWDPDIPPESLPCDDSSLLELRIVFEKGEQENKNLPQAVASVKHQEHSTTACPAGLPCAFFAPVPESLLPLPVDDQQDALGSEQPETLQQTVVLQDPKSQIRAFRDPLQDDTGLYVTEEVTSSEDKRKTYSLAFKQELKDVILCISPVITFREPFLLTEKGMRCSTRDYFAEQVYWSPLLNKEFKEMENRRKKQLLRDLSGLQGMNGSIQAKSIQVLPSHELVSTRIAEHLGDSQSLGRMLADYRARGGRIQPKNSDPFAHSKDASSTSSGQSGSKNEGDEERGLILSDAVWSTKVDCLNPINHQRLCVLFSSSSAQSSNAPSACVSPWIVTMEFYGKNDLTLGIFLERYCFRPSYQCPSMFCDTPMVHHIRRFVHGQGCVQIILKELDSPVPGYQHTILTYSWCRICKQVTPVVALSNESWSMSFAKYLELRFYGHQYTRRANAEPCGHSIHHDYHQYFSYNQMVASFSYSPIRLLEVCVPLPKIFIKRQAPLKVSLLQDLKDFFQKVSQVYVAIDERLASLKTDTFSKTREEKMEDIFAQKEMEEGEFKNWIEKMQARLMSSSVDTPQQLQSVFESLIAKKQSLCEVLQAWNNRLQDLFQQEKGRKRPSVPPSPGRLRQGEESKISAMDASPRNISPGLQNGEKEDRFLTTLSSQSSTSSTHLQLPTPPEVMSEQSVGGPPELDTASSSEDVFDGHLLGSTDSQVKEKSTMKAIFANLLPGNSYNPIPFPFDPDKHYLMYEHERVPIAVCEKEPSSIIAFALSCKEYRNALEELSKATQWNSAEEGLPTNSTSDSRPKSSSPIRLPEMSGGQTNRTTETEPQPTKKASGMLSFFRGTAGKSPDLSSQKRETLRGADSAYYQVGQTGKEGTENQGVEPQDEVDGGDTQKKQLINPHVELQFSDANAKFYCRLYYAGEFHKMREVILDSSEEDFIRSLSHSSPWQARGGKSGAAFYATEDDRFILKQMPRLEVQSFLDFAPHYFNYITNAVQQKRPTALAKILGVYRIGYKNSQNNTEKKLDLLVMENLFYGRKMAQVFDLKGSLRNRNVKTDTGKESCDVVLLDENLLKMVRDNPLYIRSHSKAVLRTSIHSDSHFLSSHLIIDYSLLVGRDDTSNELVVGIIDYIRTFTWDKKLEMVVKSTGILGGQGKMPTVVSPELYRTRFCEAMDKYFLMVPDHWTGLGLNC
Sequence of UniProt Q92772 (whole entry, looked up): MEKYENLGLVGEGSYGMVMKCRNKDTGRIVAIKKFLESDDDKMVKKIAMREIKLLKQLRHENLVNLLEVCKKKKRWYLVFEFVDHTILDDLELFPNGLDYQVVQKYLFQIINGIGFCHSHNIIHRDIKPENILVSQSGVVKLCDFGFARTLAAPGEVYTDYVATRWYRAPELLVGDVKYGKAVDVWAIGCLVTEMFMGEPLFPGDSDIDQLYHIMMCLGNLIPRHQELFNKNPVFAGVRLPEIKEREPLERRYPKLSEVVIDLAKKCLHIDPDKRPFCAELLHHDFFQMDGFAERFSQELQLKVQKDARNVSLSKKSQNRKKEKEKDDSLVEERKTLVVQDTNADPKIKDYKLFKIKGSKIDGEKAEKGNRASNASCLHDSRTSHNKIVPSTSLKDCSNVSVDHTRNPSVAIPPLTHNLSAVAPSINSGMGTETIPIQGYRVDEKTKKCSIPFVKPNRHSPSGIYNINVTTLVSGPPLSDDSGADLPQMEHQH

Sample 1
Target: Serine/threonine-protein kinase NLK (NLK, Homo sapiens, UniProt Q9UBE8)
Sequence of UniProt Q9UBE8 (whole entry, looked up): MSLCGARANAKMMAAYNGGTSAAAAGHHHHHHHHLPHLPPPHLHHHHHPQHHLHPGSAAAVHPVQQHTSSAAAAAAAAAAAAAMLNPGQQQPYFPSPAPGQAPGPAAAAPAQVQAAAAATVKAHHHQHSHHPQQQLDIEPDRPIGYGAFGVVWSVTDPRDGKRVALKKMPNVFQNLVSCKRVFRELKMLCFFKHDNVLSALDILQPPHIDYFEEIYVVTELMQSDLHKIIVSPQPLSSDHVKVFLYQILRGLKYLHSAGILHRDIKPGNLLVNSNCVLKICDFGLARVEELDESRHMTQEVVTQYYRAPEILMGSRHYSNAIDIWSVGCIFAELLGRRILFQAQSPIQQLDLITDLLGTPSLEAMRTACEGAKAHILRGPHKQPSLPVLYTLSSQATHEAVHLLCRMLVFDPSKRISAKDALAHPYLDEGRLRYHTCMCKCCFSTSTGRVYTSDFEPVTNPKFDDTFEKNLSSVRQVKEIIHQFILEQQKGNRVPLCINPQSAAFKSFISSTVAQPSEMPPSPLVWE
Observed: enzyme activity
Action: inhibitor
Tested at: 0.5 µM
Reference: control
| Compound | remaining activity [%] |
| --- | --- |
| CN(C)C[C@H]1CCn2c(c(C3=C(c4cn(C)c5ccccc45)C(=O)NC3=O)c3ccccc32)C1 | 101 |
| O=c1cc(-c2cccc3c2Sc2ccccc2S3)oc(N2CCOCC2)c1 | 108 |
| Cc1nc2cc3nc(-c4cccs4)cnc3cc2n1C | 105 |
| CCN(CC)CCNC(=O)c1c(C)[nH]c(/C=C2\C(=O)Nc3ccc(F)cc32)c1C | 105 |
| O=C1c2ccccc2-c2n[nH]c3cccc1c23 | 96.1 |
| Ic1cccc(CSc2nnc(-c3ccncc3)o2)c1 | 107 |
| Cc1cn(-c2cc(NC(=O)c3ccc(C)c(Nc4nccc(-c5cccnc5)n4)c3)cc(C(F)(F)F)c2)cn1 | 105 |
| Cn1nc2c3c(cccc31)C(=O)c1ccccc1-2 | 100 |
| N#C/C(=C\c1ccc(O)c(O)c1)C(=O)NCc1ccccc1 | 110 |
| COc1cc2ncnc(Nc3ccc(O)c(Br)c3)c2cc1OC | 76.2 |
| CCN(CC)C(=O)c1ccc(Nc2nc(OCC3CCCCC3)c3[nH]cnc3n2)cc1 | 94.5 |
| O=C(NC(NC(=S)Nc1ccc(F)c([N+](=O)[O-])c1)C(Cl)(Cl)Cl)C(c1ccccc1)c1ccccc1 (centres unmarked) | 106 |
| CN([C@@H](Cc1ccc(OS(=O)(=O)c2cccc3cnccc23)cc1)C(=O)N1CCN(c2ccccc2)CC1)S(=O)(=O)c1cccc2cnccc12 | 106 |
| COc1cc2ncnc(Nc3cccc(Cl)c3)c2cc1OC | 83.1 |
| Cc1cc2ncc(-c3ccccc3)nc2cc1C | 92.8 |
| COc1cc2c(cc1OC)-c1[nH]nc(Nc3cccc(F)c3)c1C2 | 74.1 |
| CCOc1nc(NC(=O)Cc2cc(OC)ccc2OC)cc(N)c1C#N | 104 |
| N#Cc1c(NC(=O)c2cccc3ccccc23)sc2c1CCCC2 | 99.4 |
| c1ccc(-c2cnc(Nc3ccc(OCCN4CCCC4)cc3)s2)cc1 | 89.7 |
| C[C@@H]1CCN(C(=O)CC#N)C[C@@H]1N(C)c1ncnc2[nH]ccc12 | 110 |
| c1ccc(-c2[nH]ncc2-c2ccnc3ccccc23)nc1 | 79.8 |
| CCN(CC)CCNC(=O)c1c(C)[nH]c(/C=C2\C(=O)Nc3ccc(Cl)cc32)c1C | 101 |
| O=C(Nc1cccc(Nc2nccc(Nc3cccc(C(F)(F)F)c3)n2)c1)C1CC1 | 101 |
| Nc1cccc(-c2cc3c(Oc4cccc(O)c4)ncnc3[nH]2)c1 | 87.7 |
| O=C1C(Cl)=C(N2C(=O)CCC2=O)C(=O)c2ccccc21 | 105 |

Sample 2
Structure (SMILES): CCOC(=O)c1cc2cc(-c3cc(C(=O)NCc4ccc(C(=O)O)cc4)nn3C)ccc2[nH]1
Observed: cell-free assay
Method: competition with immobilised ligand
Tested at: 0.1 µM
| target | remaining binding |
| --- | --- |
| Receptor-type tyrosine-protein kinase FLT3 (FLT3, Homo sapiens, UniProt P36888, D835V/ITD) | 87% |
| Atypical kinase COQ8A, mitochondrial (COQ8A, Homo sapiens, UniProt Q8NI60) | 100% |
| Fibroblast growth factor receptor 3 (FGFR3, Homo sapiens, UniProt P22607) | 97% |
| Mitogen-activated protein kinase kinase kinase 4 (MAP3K4, Homo sapiens, UniProt Q9Y6R4) | 91% |
| Tyrosine-protein kinase Fgr (FGR, Homo sapiens, UniProt P09769) | 94% |
| Serine/threonine-protein kinase TBK1 (TBK1, Homo sapiens, UniProt Q9UHD2) | 84% |
| Phosphatidylinositol 4,5-bisphosphate 3-kinase catalytic subunit beta isoform (PIK3CB, Homo sapiens, UniProt P42338) | 88% |
| Mitogen-activated protein kinase kinase kinase 2 (MAP3K2, Homo sapiens, UniProt Q9Y2U5) | 100% |
| Receptor-interacting serine/threonine-protein kinase 1 (RIPK1, Homo sapiens, UniProt Q13546) | 100% |
| Casein kinase I isoform alpha (CSNK1A1, Homo sapiens, UniProt P48729) | 88% |
| Tyrosine-protein kinase CSK (CSK, Homo sapiens, UniProt P41240) | 74% |
| Microtubule-associated serine/threonine-protein kinase 1 (MAST1, Homo sapiens, UniProt Q9Y2H9) | 87% |
| Cyclin-dependent kinase 4, with cyclin D3 (CDK4, Homo sapiens, UniProt P11802) | 74% |
| Mitogen-activated protein kinase kinase kinase 6 (MAP3K6, Homo sapiens, UniProt O95382) | 79% |
| Cyclin-dependent kinase-like 2 (CDKL2, Homo sapiens, UniProt Q92772) | 88% |
| Dual specificity testis-specific protein kinase 1 (TESK1, Homo sapiens, UniProt Q15569) | 97% |
| Mast/stem cell growth factor receptor Kit (KIT, Homo sapiens, UniProt P10721, A829P) | 95% |
| Death-associated protein kinase 2 (DAPK2, Homo sapiens, UniProt Q9UIK4) | 92% |
| Fibroblast growth factor receptor 1 (FGFR1, Homo sapiens, UniProt P11362) | 86% |
| Phosphatidylinositol 4,5-bisphosphate 3-kinase catalytic subunit alpha isoform (PIK3CA, Homo sapiens, UniProt P42336, C420R) | 83% |
| Mitogen-activated protein kinase 11 (MAPK11, Homo sapiens, UniProt Q15759) | 98% |
| 1-phosphatidylinositol 3-phosphate 5-kinase (PIKFYVE, Homo sapiens, UniProt Q9Y2I7) | 100% |
| Epidermal growth factor receptor (EGFR, Homo sapiens, UniProt P00533, G719S) | 100% |
| Inhibitor of nuclear factor kappa-B kinase subunit epsilon (IKBKE, Homo sapiens, UniProt Q14164) | 66% |
| Macrophage colony-stimulating factor 1 receptor (CSF1R, Homo sapiens, UniProt P07333) | 100% |

Sample 3
Cell line: mouse MPNST tumor cells
Method: high-content nuclear imaging
Measured: cell number
Tested at: 10 µM
Time: 12 h
Setting: mean of 2 replicates
Reference: plate mean
Direction: higher = more cells
| Compound | nuclei count |
| --- | --- |
| O=C(Nc1cccc2c(=O)cc(-c3nn[nH]n3)oc12)c1ccc(OCCCCc2ccccc2)cc1 | 0.899 z-score |
| Clc1ccc(CCCOCCCN2CCCCC2)cc1 | 3.17 z-score |
| CC(C)(C)C1CCc2c(sc(NC(=O)c3ccco3)c2C(=O)O)C1 (centres unmarked) | 1.25 z-score |
| CCN(CC)CCNC(=O)COc1ccc(OC)cc1 | 1.38 z-score |
| Cc1cccc(CN2CCN(C(c3ccccc3)c3ccc(Cl)cc3)CC2)c1 (centres unmarked) | 0.0404 z-score and 0.534 z-score |
| O=[N+]([O-])c1cccc2cn[nH]c12 | -0.962 z-score |
| Nc1ccc(S(=O)(=O)Nc2ccccn2)cc1 | -0.111 z-score |
| c1ccc(-c2[nH]ncc2-c2ccnc3ccccc23)nc1 | -2.27 z-score |
| Clc1ccc2c(c1)CCc1cccnc1C2=C1CCNCC1 | -3.24 z-score |

Sample 4
Target: Calcium/calmodulin-dependent protein kinase type II subunit alpha (CAMK2A, Homo sapiens, UniProt Q9UQM7)
Sequence of UniProt Q9UQM7 (whole entry, looked up): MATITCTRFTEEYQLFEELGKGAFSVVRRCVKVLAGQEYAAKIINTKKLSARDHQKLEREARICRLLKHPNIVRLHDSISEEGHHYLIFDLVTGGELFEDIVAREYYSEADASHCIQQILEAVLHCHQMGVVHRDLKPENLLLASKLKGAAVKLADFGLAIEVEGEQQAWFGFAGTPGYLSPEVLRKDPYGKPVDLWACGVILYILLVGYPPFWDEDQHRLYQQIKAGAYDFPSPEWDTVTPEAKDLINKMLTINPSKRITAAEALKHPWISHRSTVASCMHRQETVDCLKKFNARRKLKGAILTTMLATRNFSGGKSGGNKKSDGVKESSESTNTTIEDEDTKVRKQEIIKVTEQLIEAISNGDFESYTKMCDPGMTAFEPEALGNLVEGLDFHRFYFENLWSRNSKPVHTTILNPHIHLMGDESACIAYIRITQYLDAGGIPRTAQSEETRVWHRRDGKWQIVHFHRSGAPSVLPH
Observed: enzyme activity
Action: inhibitor
Tested at: 10 µM
| Structure (SMILES) | inhibition [%] |
| --- | --- |
| C=C1CC[C@@]2(OC1)O[C@H]1C[C@H]3[C@@H]4CC=C5C[C@@H](O)C[C@@H](O)[C@]5(C)[C@H]4CC[C@]3(C)[C@H]1[C@@H]2C | 32 |
| O=C(O)c1cc(O)c2c(c1)C(=O)c1cccc(O)c1C2=O | 2 |
| COC(=O)[C@H]1O[C@@H](O[C@H]2CC[C@]3(C)[C@H]4CC=C5[C@@H]6CC(C)(C)CC[C@]6(C(=O)O)CC[C@@]5(C)[C@]4(C)CC[C@H]3[C@]2(C)C=O)[C@H](O)[C@@H](O)[C@@H]1O | -3 |
| COc1ccc(C(=O)O)cc1O | -43 |
| Cc1ccn(-c2cc(Cl)ccc2[C@@H](Oc2cc(-c3ccc(C[C@H](N)C(=O)O)cc3)nc(N)n2)C(F)(F)F)n1 | -4 |
| O=C(O)c1ccccc1Nc1cccc(C(F)(F)F)c1 | 4 |
| COc1cc(-c2cc(=O)c3c(O)c(OC)c(O)cc3o2)cc(O)c1OC | 31 |
| CCOC(=O)[C@@](C)(N)Cc1ccc(O)c(O)c1 | -5 |
| O=C1CCCCO1 | 4 |
| CC(=O)O[C@H]1Cc2c(cc3oc(C)cc(=O)c3c2O)OC1(C)C | -26 |
| CC[C@H]1OC(=O)[C@H](C)[C@@H](O[C@H]2C[C@@](C)(OC)[C@@H](O)[C@H](C)O2)[C@H](C)[C@@H](O[C@@H]2O[C@H](C)C[C@H](N(C)C)[C@H]2O)[C@](C)(O)C[C@@H](C)[C@@H]2N[C@@H](COCCOC)O[C@H]([C@H]2C)[C@]1(C)O | -8 |
| CCCc1nc2c(C)cc(-c3nc4ccccc4n3C)cc2n1Cc1ccc(-c2ccccc2C(=O)O)cc1 | 4 |

A few entries again (sample 2):
| target | remaining binding |
| --- | --- |
| Mitogen-activated protein kinase kinase kinase 2 (MAP3K2, Homo sapiens, UniProt Q9Y2U5) | 100% |
| Receptor-interacting serine/threonine-protein kinase 1 (RIPK1, Homo sapiens, UniProt Q13546) | 100% |
| Casein kinase I isoform alpha (CSNK1A1, Homo sapiens, UniProt P48729) | 88% |
| Tyrosine-protein kinase CSK (CSK, Homo sapiens, UniProt P41240) | 74% |
| Microtubule-associated serine/threonine-protein kinase 1 (MAST1, Homo sapiens, UniProt Q9Y2H9) | 87% |
| Cyclin-dependent kinase 4, with cyclin D3 (CDK4, Homo sapiens, UniProt P11802) | 74% |
| Mitogen-activated protein kinase kinase kinase 6 (MAP3K6, Homo sapiens, UniProt O95382) | 79% |
| Cyclin-dependent kinase-like 2 (CDKL2, Homo sapiens, UniProt Q92772) | 88% |
| Dual specificity testis-specific protein kinase 1 (TESK1, Homo sapiens, UniProt Q15569) | 97% |
| Mast/stem cell growth factor receptor Kit (KIT, Homo sapiens, UniProt P10721, A829P) | 95% |
